Experimental data pooled from the literature.
Lines come from different studies, so protocols differ. Numbers after ± are the reported error. Converted amounts (≈) assume the structure as drawn.

Compound | assay | test system | conditions | scale | measurement | value
N=C(N)NCCC[C@@H]1NC(=O)[C@H](CCCCNC(=O)CC[C@H](NC(=O)CC[C@H](NC(=O)CN2CCN(CC(=O)O)CCN(CC(=O)O)CCN(CC(=O)O)CC2)C(=O)N[C@@H](CCC(=O)NCCCC[C@@H]2NC(=O)[C@@H](Cc3ccccc3)NC(=O)[C@H](CC(=O)O)NC(=O)CNC(=O)[C@H](CCCNC(=N)N)NC2=O)C(=O)NCCCC[C@@H]2NC(=O)[C@@H](Cc3ccccc3)NC(=O)[C@H](CC(=O)O)NC(=O)CNC(=O)[C@H](CCCNC(=N)N)NC2=O)C(=O)NCCCC[C@@H]2NC(=O)[C@@H](Cc3ccccc3)NC(=O)[C@H](CC(=O)O)NC(=O)CNC(=O)[C@H](CCCNC(=N)N)NC2=O)NC(=O)[C@@H](Cc2ccccc2)NC(=O)[C@H](CC(=O)O)NC(=O)CNC1=O [indium-111 labelled] |  | female BALB/c nude mice, SK-RC-52 xenograft, tumour | 0.5 µg, 2 h post injection, added: excess unlabelled DOTA-E-[c(RGDfK)]2 50 µg |  | radioactivity concentration | decreased
C=CC(=O)Nc1cc(Nc2nccc(-c3cn(C4CC4)c4ccccc34)n2)c(OC)cc1N(C)CCNC | radiolabelled metabolite profiling | human male, plasma | oral, 110 mg, 10 h |  | plasma concentration | 12.5 ng/g
C=C(c1ncc(C(=O)O)cn1)c1cc2c(cc1C)C(C)(C)CCC2(C)C |  | Sprague-Dawley rat, male, plasma | oral, 100 mg/kg, 1 h, sesame oil vehicle |  | HDL level | 74 ± 4 mg/dL
CCCCCCCCCCCCCCCC(=O)NCCOCCOCCOCCOCCOCCOCCOCCOCCC(=O)NCCCC[C@H](NC(=O)CNC(=O)[C@@H]1CSSC[C@H](N)C(=O)N[C@@H](Cc2ccc(O)cc2)C(=O)N[C@@H]([C@@H](C)CC)C(=O)N[C@@H](CCC(N)=O)C(=O)N[C@@H](CC(N)=O)C(=O)N1)C(=O)NCC(N)=O |  | rat, CSF | subcutaneous depot, 10 mg/kg |  | unbound Cmax | 0.009 nM
C[C@@H]1Cc2c([nH]c3ccccc23)[C@@H](c2c(F)cc(/C=C/C(=O)O)cc2F)N1C12CC(C1)C2 |  | Balb/c nude mouse, MCF7 xenograft, tumour | oral, 5 mg/kg, steady state |  | AUC(0-t) | 8300 ng·h/mL
OC1(C(F)(F)F)CCN(c2nc(Nc3ccnc(C(F)(F)F)c3)nc(-c3cccc(C(F)(F)F)n3)n2)C1 (stereo not shown) |  | monkey, both sexes | oral, 1 mg/kg daily for 14 days | relative to: day 14 over day 1 | AUC(0-24h) accumulation ratio | 5.4
COC(=O)c1ccc2c(c1)NC(=O)/C2=C(\Nc1ccc2c(c1)CCN2C(=O)CN1CCOCC1)c1ccccc1 |  | beagle dog, plasma | oral, 50 mg/kg, suspension |  | AUC(0-t) | 5180 ng·h/mL
N=C(N)NCCC[C@@H]1NC(=O)[C@H](Cc2c[nH]c3ccccc23)NC(=O)[C@@H](CC2CCCCC2)NC(=O)[C@@H]2CCCN2C(=O)[C@@H](NC(=O)CCc2ccccc2)CCCNC1=O |  | C57BL/6J mouse, plasma | oral, 1 mg/kg, single dose |  | AUC | 785 ng·h/mL
[11CH3]Nc1ccc(-c2nc3ccc(O)cc3o2)cn1 | PET | human, brain | intravenous, dose not given |  | peak brain radioactivity | 2.5 to 3.5 % injected dose
Cc1nc(C)c(C=[N+]([O-])C(C)(C)C)nc1C |  | healthy human, both sexes, serum | oral, 600 mg twice daily, 7 days |  | Vss/F | 88.8 L
C=CC(=O)Nc1cc(Nc2nccc(-n3ccc4nc(OC)ccc43)n2)c(OC)cc1N(C)CCN(C)C |  | BALB/c nude mouse, H1975 intracranial tumour | oral, 60 mg/kg, 1 h | relative to: brain tumour over plasma | tissue/plasma ratio | 1.23
CCCCN1C(=O)c2cccc3c(NCCCCCCCCN4CCOCC4)ccc(c23)C1=O |  | aqueous medium | pH 6 |  | fluorescence brightness | 2530 M⁻¹ cm⁻¹
NC12CNCCNCC(NCc3ccc(CNC(=O)CCCC(=O)NCc4ccc(-c5nncnn5)cc4)cc3)(CNCCNC1)CNCCNC2.[64Cu+2] | OLINDA dosimetry | total body | pretargeting, 24-h interval |  | mean absorbed dose | 0.038 rad/mCi
Cc1cccc(-c2cccc(C)n2)n1.Cc1cccc(-c2cccc(C)n2)n1.[Cl-].[Cl-].[Ru+2].c1ccc(-c2ccnc3c2ccc2c(-c4ccccc4)ccnc23)cc1 | UV/Vis | PBS | concentration not given |  | photoactivation half-life | 0.595 ± 0.025 min
CN(O)C(=O)CCC(=O)NCCCN(CCCCN(CCCNC(=O)CCC(=O)N(C)O)C(=O)CCC(=O)N(C)O)C(=O)CCC(=O)N(C)O.[89Zr] |  | mouse, heart | 4 h |  | tracer uptake | 0.02 %ID/g
C[C@H](CN(C)Cc1ccccc1)NC(=O)c1ccc(-c2noc(C(F)(F)[18F])n2)cc1 | PET | Sprague-Dawley rat, female, brain and muscle | intravenous, 30 min | relative to: brain SUV over muscle SUV | brain-to-muscle ratio | 2.66 ± 0.22
Cc1ccc(-c2ccc(-c3cc4sccc4o3)cn2)nc1 | TCSPC | dioxane |  |  | radiative decay rate constant | 0.53 ns⁻¹
C=C(c1cc(F)c(C(=O)O)c(F)c1)c1cc2c(cc1C)C(C)(C)CCC2(C)C |  | Sprague-Dawley rat, male, plasma | oral, 100 mg/kg, 24 h, sesame oil vehicle |  | HDL level | 30 ± 4.4 mg/dL
CCC/C(=C\C1=C(F)C(=O)c2ccccc2C1=O)C(=O)N(CC)CC |  | human liver S9 | 1 µM, phase II UGT conditions |  | CLint | 3.7 mL/min/kg
COCCOCCOCCOc1ccc(/C=C/C2=[N+]3C(=C(c4cc(OC)cc(OC)c4)c4c(C)c(I)c(/C=C/c5ccc(OCCOCCOCCOC)cc5)n4[B-]3(F)F)C(C)=C2I)cc1 |  | THF |  |  | log molar absorptivity | 4.8 M⁻¹ cm⁻¹
O=C(NCCCN(CCCCN(CCCNC(=O)c1cccc(=O)n1[O-])C(=O)c1cccc(=O)n1[O-])C(=O)c1cccc(=O)n1[O-])c1cccc(=O)n1[O-].[89Zr+4] | radio-TLC | PBS | 5 d, pH 7.4, 37 °C, added: Mg^2+ 10-fold excess |  | intact complex | 98.6 ± 2%
CC(C)(O)c1ncc([S@](N)(=O)=NC(=O)Nc2c3c(cc4c2CCC4)CCC3)s1 |  | healthy humans | oral, dose not given, study all active |  | number of TEAEs | 64

Compound | assay | test system | conditions | scale | measurement | value
CCC/C(=C\C1=C(C(F)(F)F)C(=O)c2ccccc2C1=O)C(=O)N(CC)CC |  | mouse liver S9 | 1 µM, phase II UGT conditions |  | CLint | 56 mL/min/kg
O=c1c2ccccc2[se]n1CCCCCCn1[se]c2ccccc2c1=O |  | 5% Soluplus in water | 24 h, 25 °C, 50 mg/mL |  | solubility | 272 ± 22 µg/mL (≈ 569 µM)
CN(C)C(=O)c1ccnc(N2Cc3cn(Cc4ccc(F)cc4F)nc3C2)n1 |  | rat, brain | 10 mg/kg, 24 h |  | unbound Cmin | 128 nM
NS(=O)(=O)c1ccc(N2N=C(C(F)(F)F)CC2c2ccc(F)cc2F)cc1 (stereo not shown) | population PK model, NONMEM | Beagle dog |  |  | V/F peripheral, bootstrap median | 27.7 L
C#CCOc1ccc(/C=C2\SC(=O)N(CC(=O)NCc3ccccc3)C2=O)cc1 | inverse Kirkwood-Buff integrals | binary solvent mixture | 298.15 K, mole fraction x1 0.45 |  | Kirkwood-Buff integral G2,3 | -368 cm³/mol
Cc1[nH]nc2c1N=C(c1ccccc1Cl)c1cnc(N3CCOCC3)cc1N2 |  | human male, urine | oral, 10 mg, 288 h | relative to: dose | urinary radioactivity excretion | < 10%
Brc1ccccc1-c1nnc(CSc2nnnn2-c2ccccc2)o1 |  | male C57BL/6 mouse, brain | intraperitoneal, 10 mg/kg, 4 h |  | concentration | 56 nM
NC[C@@H](C(=O)Nc1ccc(-c2cn[nH]c2)cc1)c1ccccc1 | OECD 405, refers to: Chemosis | New Zealand White rabbit | topical, 0.1 %, 80 h, day 4 | direction not given | ocular irritation score | 0
C[C@H](NC(=O)COC(=O)[C@H](C)NC(=O)CO)C(=O)O |  | water | pH 4, 65 °C |  | depolymerization half-life | 338 min
Oc1ccc2ccccc2c1/N=N/c1ccccc1 |  | Sprague-Dawley rats both sexes, whole blood | oral, 50 mg/kg |  | absorption rate constant | 4 h⁻¹
COc1ccc2c(O)c(C(=O)Nc3ccc(CN)cc3)ccc2c1 |  | rat liver microsomes | 1 µM, added: NADPH |  | t1/2 | 53 min
COc1cc(NC(C)=O)c2c(c1O)-c1c(OC)c(OC)cc3c1C(C2)N(C)CC3 (stereo not shown) |  | rat lung homogenate | 100 µg/mL, 40 d, -20 °C, long-term storage |  | remaining compound | 90.2 ± 4.1%
CCCC[C@@H]1NC(=O)[C@@H](NC(=O)[C@H](CCC(=O)O)NC(=O)CNC(=O)CN2CCN(CC(=O)O)CCN(CC(=O)O)CCN(CC(=O)O)CC2)CCCCNC(=O)C[C@@H](C(N)=O)NC(=O)[C@H](C(C)C)NC(=O)[C@@H]2CCCN2C(=O)[C@H](CCCNC(=N)N)NC(=O)CNC(=O)[C@H](Cc2c[nH]c3ccccc23)NC(=O)[C@H](CCCNC(=N)N)NC(=O)[C@@H](Cc2ccccc2)NC(=O)[C@H](Cc2c[nH]cn2)NC(=O)[C@H](CCC(=O)O)NC1=O [gallium-67 labelled] |  | C57 mice, B16/F1 flank melanoma, intestine | intravenous, 0.037 MBq/mouse, 2 h |  | intestine uptake | 0.37 ± 0.23 %ID
Cn1c(=O)oc2ccc(-c3ccc(CC(C#N)NC(=O)C4CNCCCO4)c(F)c3)cc21 (stereo not shown) |  | human | oral, 20 mg once daily, TEAE, multiple ascending dose |  | fibrinogen decreased incidence | 0%
CC(C)c1cnc(-c2cc(Cl)ccc2F)cc1Nc1ccncc1C(=O)NC(CO)CO |  | human patients | oral, dose not given, worst grade 4 |  | patients with any TRAE | 0%
CC[C@H](C)[C@H](N)C(=O)N[C@@H](CC(C)C)C(=O)N1CCC[C@H]1C(=O)N[C@@H](Cc1c[nH]c2ccccc12)C(=O)N[C@@H](CCCCN)C(=O)N[C@@H](Cc1c[nH]c2ccccc12)C(=O)N1CCC[C@H]1C(=O)N[C@@H](Cc1c[nH]c2ccccc12)C(=O)N[C@@H](Cc1c[nH]c2ccccc12)C(=O)N1CCC[C@H]1C(=O)N[C@@H](Cc1c[nH]c2ccccc12)C(=O)N[C@@H](CCCNC(=N)N)C(=O)N[C@@H](CCCNC(=N)N)C(N)=O | fluorescence spectroscopy | 10 mM TES buffer | pH 7.4, excitation 295 nm |  | Trp emission maximum | 357 nm
O=C([O-])CN1CCN(CC(=O)[O-])CCN(CC(=O)[O-])CCN(CC(=O)[O-])CC1.[64Cu+2] |  | human serum | 20 h, 37 °C, added: 64Cu |  | radiometal bound to chelator | 74%
Brc1ccc(Nc2nc(NN=Cc3c[nH]c4ccccc34)nc(N3CCOCC3)n2)cc1 |  | human liver microsomes | in vivo extrapolated |  | CLint | 0 mL/min
Cc1cc2c(cc1C1(c3ncc(C(=O)O)cn3)CC1)C(C)(C)CCC2(C)C |  | Sprague-Dawley rat, male | oral, 100 mg/kg, 6 h, sesame oil vehicle |  | blood triglycerides | 229 ± 93 mg/dL
COc1ccc(S(=O)(=O)N/N=C/c2ccc(C#N)cc2)cc1OC |  | male Wistar rat liver microsomes | 10 µM, 3 h, pH 7.4, added: NADPH |  | compound consumed | ~50%
CC12N3Cc4c(OCCCS(=O)(=O)[O-])ccc(OCCCS(=O)(=O)[O-])c4CN1C(=O)N1CN4C(=O)N5CN6C(=O)N7Cc8c(OCCCS(=O)(=O)[O-])ccc(OCCCS(=O)(=O)[O-])c8CN8C(=O)N(CN9C(=O)N(CN(C3=O)C12C)C4C95)C6(C)C87C.[Na+].[Na+].[Na+].[Na+] (stereo not shown) |  |  | pD 7.4, added: camptothecin |  | phase solubility slope | 0.045 ± 0.0051

Some of these lines once more:
Compound | assay | test system | conditions | scale | measurement | value
CCCCCCCCCCCCCCCC(=O)NCCOCCOCCOCCOCCOCCOCCOCCOCCC(=O)NCCCC[C@H](NC(=O)CNC(=O)[C@@H]1CSSC[C@H](N)C(=O)N[C@@H](Cc2ccc(O)cc2)C(=O)N[C@@H]([C@@H](C)CC)C(=O)N[C@@H](CCC(N)=O)C(=O)N[C@@H](CC(N)=O)C(=O)N1)C(=O)NCC(N)=O |  | rat, CSF | subcutaneous depot, 10 mg/kg |  | unbound Cmax | 0.009 nM
COc1ccc(S(=O)(=O)N/N=C/c2ccc(C#N)cc2)cc1OC |  | male Wistar rat liver microsomes | 10 µM, 3 h, pH 7.4, added: NADPH |  | compound consumed | ~50%
NC12CNCCNCC(NCc3ccc(CNC(=O)CCCC(=O)NCc4ccc(-c5nncnn5)cc4)cc3)(CNCCNC1)CNCCNC2.[64Cu+2] | OLINDA dosimetry | total body | pretargeting, 24-h interval |  | mean absorbed dose | 0.038 rad/mCi
Cc1cc2c(cc1C1(c3ncc(C(=O)O)cn3)CC1)C(C)(C)CCC2(C)C |  | Sprague-Dawley rat, male | oral, 100 mg/kg, 6 h, sesame oil vehicle |  | blood triglycerides | 229 ± 93 mg/dL
N=C(N)NCCC[C@@H]1NC(=O)[C@H](CCCCNC(=O)CC[C@H](NC(=O)CC[C@H](NC(=O)CN2CCN(CC(=O)O)CCN(CC(=O)O)CCN(CC(=O)O)CC2)C(=O)N[C@@H](CCC(=O)NCCCC[C@@H]2NC(=O)[C@@H](Cc3ccccc3)NC(=O)[C@H](CC(=O)O)NC(=O)CNC(=O)[C@H](CCCNC(=N)N)NC2=O)C(=O)NCCCC[C@@H]2NC(=O)[C@@H](Cc3ccccc3)NC(=O)[C@H](CC(=O)O)NC(=O)CNC(=O)[C@H](CCCNC(=N)N)NC2=O)C(=O)NCCCC[C@@H]2NC(=O)[C@@H](Cc3ccccc3)NC(=O)[C@H](CC(=O)O)NC(=O)CNC(=O)[C@H](CCCNC(=N)N)NC2=O)NC(=O)[C@@H](Cc2ccccc2)NC(=O)[C@H](CC(=O)O)NC(=O)CNC1=O [indium-111 labelled] |  | female BALB/c nude mice, SK-RC-52 xenograft, tumour | 0.5 µg, 2 h post injection, added: excess unlabelled DOTA-E-[c(RGDfK)]2 50 µg |  | radioactivity concentration | decreased
